Published values from different studies.
Each line is one published result; not all experiments were run side by side.

SMILES | organism | test | test system | setting | MIC
CCc1ccc([C@@H]2C[C@H](C(F)(F)F)n3ncc(C(=O)NCc4ccc(OC)cc4)c3N2)cc1 | Moraxella catarrhalis | microbial growth, broth dilution | 1502 | – | 8 µM
N=C(N)NCCC[C@@H]1NC(=O)[C@H](CCCNC(=N)N)NC(=O)[C@H](CCCNC(=N)N)NC(=O)[C@H](CCCNC(=N)N)NC(=O)[C@H](Cc2c[nH]c3ccccc23)NC(=O)[C@H](CCCNC(=N)N)NC(=O)[C@H](CCCNC(=N)N)NC(=O)[C@@H](N)CCCCn2cc(nn2)C[C@@H](C(N)=O)NC1=O | Salmonella enterica serovar Paratyphi B | – | – | 24 h, 37 °C | 15.6 µg/mL
CC(C)=CCc1cc([C@@H]2CC(=O)c3c(O)cc(O)c(CC=C(C)C)c3O2)cc(CC=C(C)C)c1O | Salmonella enterica serovar Typhi | – | DMST 22842 | up to 128 µg/mL | inactive
CCc1ccn2c(C(=O)NCc3ccc(C)cc3)c(C)nc2c1 | Mycobacterium tuberculosis variant bovis BCG | microbial growth | BCG | 6 days | 0.5 µM
c1cc2c(s1)CCOC21CCN(Cc2ccc3c(c2)OCCO3)CC1 | Moraxella catarrhalis | microbial growth, broth dilution | 1502 | – | 32 µM
CC[C@H](C)[C@H](NC(=O)[C@@H](NC(=O)[C@H](CCCCN)NC(=O)[C@H](CC(=O)O)NC(=O)[C@H](CCCCN)NC(=O)[C@H](Cc1ccccc1)NC(=O)[C@H](Cc1ccccc1)NC(=O)[C@H](CO)NC(=O)[C@H](CCCCN)NC(=O)[C@H](CCSC)NC(=O)[C@H](CCCCN)NC(=O)[C@H](CCCCN)NC(=O)[C@H](Cc1c[nH]c2ccccc12)NC(=O)[C@@H](N)Cc1ccccc1)C(C)C)C(=O)N1CCC[C@H]1C(=O)N[C@@H](CCCCN)C(=O)N[C@H](C(=O)N[C@@H](CCC(N)=O)C(=O)N[C@@H](CCC(N)=O)C(=O)N[C@@H](C)C(=O)N[C@@H](Cc1ccc(O)cc1)C(=O)N[C@@H](CO)C(=O)N[C@@H](CC(C)C)C(=O)N[C@@H](Cc1ccc(O)cc1)C(=O)N[C@@H](CC(N)=O)C(=O)N[C@@H](CCCCN)C(=O)N[C@@H](CC(C)C)C(=O)N[C@@H](CCC(N)=O)C(=O)N[C@@H](Cc1c[nH]cn1)C(=O)N[C@@H](CCCCN)C(=O)N[C@@H](CC(C)C)C(N)=O)C(C)C | Mycolicibacterium smegmatis | ATP luminescence | ATCC 607 | 48 h | 3.12 µM
O=C(NC12CC3CC(CC(C3)C1)C2)c1cc2cc(Cl)ccc2[nH]1 | Mycobacterium tuberculosis variant bovis BCG | microbial growth | THP-1, BCG | intracellular | 0.06 µM
COc1ccc2c3c(oc2c1CC=C(C)C)-c1cc(CC=C(C)C)c(O)cc1OC3 | Salmonella enterica serovar Typhi | – | DMST 22842 | up to 128 µg/mL | inactive
Cc1ccc2nc(C)c(C(=O)NCc3ccccc3)n2c1 | Mycobacterium tuberculosis variant bovis BCG | microbial growth | BCG | 6 days | 1 µM
CC[C@H](C)[C@@H]1NC(=O)[C@H](CC(C)C)NC(=O)[C@@H](NC(=O)[C@H](CO)NC(=O)[C@H](CCCNC(=N)N)NC(=O)[C@@H](N)CO)CSSC[C@@H](C(=O)N[C@@H](CCC(N)=O)C(=O)N[C@@H](CCCNC(=N)N)C(=O)N[C@@H](CC(C)C)C(=O)N[C@@H](Cc2ccccc2)C(N)=O)NC(=O)[C@H](C(C)C)NC(=O)[C@H]([C@@H](C)CC)NC(=O)[C@H](CC(C)C)NC(=O)[C@@H](NC(=O)[C@H](CO)NC(=O)[C@H](CCCNC(=N)N)NC(=O)[C@@H](N)CO)CSSC[C@@H](C(=O)N[C@@H](CCC(N)=O)C(=O)N[C@@H](CCCNC(=N)N)C(=O)N[C@@H](CC(C)C)C(=O)N[C@@H](Cc2ccccc2)C(N)=O)NC(=O)[C@H](C(C)C)NC1=O | Candida parapsilosis | broth microdilution | ATCC 22019 | – | > 100 µg/mL
Cc1ccc2nc(C)c(C(=O)C(=O)NCc3ccccc3)n2c1 | Mycobacterium tuberculosis variant bovis BCG | microbial growth | BCG | 6 days | 29 µM
Cc1ccc2nc(C)c(C(=O)NCc3cccs3)n2c1 | Mycobacterium tuberculosis variant bovis BCG | microbial growth | THP-1, BCG | intracellular | > 10 µM

A few entries again:
SMILES | organism | test | test system | setting | MIC
CCc1ccc([C@@H]2C[C@H](C(F)(F)F)n3ncc(C(=O)NCc4ccc(OC)cc4)c3N2)cc1 | Moraxella catarrhalis | microbial growth, broth dilution | 1502 | – | 8 µM
